Experimental data of several laboratories.
Parts stem from different laboratories: compare values within a part only. Positions count from the first letter of the parent shown.

Set 1
Target: ABI1, truncated, D143A, DHFR fusion (Arabidopsis thaliana)
Technique: DHFR PCA, deep sequencing
Matrix: yeast
Notes: methotrexate growth selection, single substitutions
Added: (+)-ABA 17 µM
Baseline: wild-type fitted maximum
Reading: higher = stronger binding
Endpoint: relative binding score
Starting sequence: PYL1, truncated, DHFR fusion (Arabidopsis thaliana); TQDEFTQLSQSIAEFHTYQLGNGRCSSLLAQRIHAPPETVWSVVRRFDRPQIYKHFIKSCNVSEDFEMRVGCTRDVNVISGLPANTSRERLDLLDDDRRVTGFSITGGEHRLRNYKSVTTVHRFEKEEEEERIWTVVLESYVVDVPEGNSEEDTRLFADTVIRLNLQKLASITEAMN
V100D: -4.13%
L138K: -12.8%
V143H: 1.1%
D159S: 56.5%
V76N: 9.35%
Y53G: -3.26%
E139T: 88.3%
S9L: 62.3%
N85Y: 76.6%
L28S: 16%
E128L: 76.6%
I105F: -8.92%
E64R: 81.9%
W41K: -30.4%
C72K: 44.3%
V142L: 50%

Set 2
Target: RING finger protein unkempt homolog, zinc fingers 1-6, GST-SBP tag (UNK, Homo sapiens, UniProt Q9C0B0, residues 30-357)
UniProt Q9C0B0, sequence (30-357, looked up): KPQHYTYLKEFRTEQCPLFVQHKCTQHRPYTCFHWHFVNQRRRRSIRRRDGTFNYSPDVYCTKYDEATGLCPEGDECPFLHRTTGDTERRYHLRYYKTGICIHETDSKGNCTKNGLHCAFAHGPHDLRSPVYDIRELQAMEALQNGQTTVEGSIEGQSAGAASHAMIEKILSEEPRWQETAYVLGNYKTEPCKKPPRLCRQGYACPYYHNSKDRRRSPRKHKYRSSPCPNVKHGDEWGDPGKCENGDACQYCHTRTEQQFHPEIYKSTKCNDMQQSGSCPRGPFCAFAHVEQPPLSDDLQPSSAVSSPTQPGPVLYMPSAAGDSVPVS
Technique: RNA Bind-n-Seq
Form: RNA
Matrix: in vitro
Tested at: not given
Notes: RNA with constant flanks, human-mouse chimeric sites, ends assumed
Baseline: input RNA pool
Reading: higher = stronger binding
Endpoint: bound/input enrichment
Constant ends, left off below: GGGAGUUCUACAGUCCGACGAUC … CAACAGAGGAUUGAGCAUCA
AGAUUCCCCCUCCUGAGACCUCCUCCGAAGUUGGAGUCUCUUAUAGAUGCCUCAUCCCCUGUUAGCGUUUUAGUUUGGACCACACAACCUUGGACAAUUCCCGCCAACCAGGCAAUUUGC: 2.43 ratio
GGGACUGAUUCAUCCCAAGGACAGGCCGCCCAGUCUGAUGCCUGGACUGAUGACAGUAUGGAAGGGCCUAGUCAAAAUGUUGAAGCUGAGUCAAUUCAAGAUAAUGCGAGUAUGGAAGAG: 0.299 ratio
UAAAUUAGGGCUGCCGUUUUCUGUUUCGCCCUGAGCUGCGGAAAGCCAGAAGAUUUUAUCUAGCUUAUACAAGGCUGCUGGAGCUUGCUCUUUUUUUCCACGAGGGUGUUUUUGGCUGCA: 0.747 ratio
GGGUGGGUGGUCAUUGCCGUUUGAGCUGCUGAUUUUCAUGAGUCGCCUUCAAAACUCUCGUGUAGGGUUGACACUGUGGGGGGGUGGGGGAUCCAGCUUAUUCUUUUAUUUUCAAGUCCA: 0.347 ratio
GUAGCUGGGACUACAGAAAUGCUGGUAAUUUCAGUCACUUGCUGAUGACUUCUGAUGACCUAGCAAAUGUUGGCAUUCACUGCAAUAGAGAAGAUACUUCUGAGGACCCACGUCUAAGGU: 0.358 ratio
GAACCUGCUCUCUCUGAUGAAGAUGAGGAAGACAAUGAUGAUGUUGAACCCAUUUCUGAAUUUAGAUUUGUGCCCAGUGAUAAGUCAGCAUUGGAGGCGAUGUUCACAGCAAUGUGUGAG: 1.03 ratio
AAUUUCCUGUCAUACUUUUUAGACAUUCACAUCAGACUUACAGAGCAUUGGGCCUCUUUCUAGGUUUGUGUUAUUUCUCAGCUAUGGGGGUAUGAUUAUGAGAACACUGCUUAACUAAUG: 0.6 ratio
AUGGUUGUGUCUCUUGAGAUCUAAAAACAAGAUGACUUUUCCUGGCACAUAUUCCAAAGCAUAGACUUUGUUGCCUGCUGCUUAUUGUCUAAUUUACAGGGAUAUUUAAUUUUGUCAGGU: 0.259 ratio
ACCAUUUUCGCGGUUCAGGCUUUGUGUUGUAUUUACUUACGGUAUUAAAUUAUUAUUCUGCUUAGCUUAUAAUAAGGAUAAUUGCAUUUAAAGAGGUUACUGAAUGUUGUUAUUGUUCUU: 0.991 ratio
UUGAAAACUGAUUCAAGCAAGUUUGAAUAUCACAAUGUUAGCUUUCUAAUUCCACACAAGUACUUGGUUUUUACAGUUUAUAAUCUGACAUCACCCCAGCGCCAUUUGUAAAGAGCAACU: 0.6 ratio
CCUCCCCCGGGCCACCCACCCCUCCCGGCUCCCCGCCGAGAUCCAGGUUUCUUCUUAUUUCAUAGCAAAUAAGAAAAAUGUUCUACGCACAUUUUGUCCUCAGUAAACGAGGGCCUCUGG: 1.38 ratio

Set 3
Target: CCNE1, cyclin fold, Cln2 fusion (human)
Technique: yeast growth competition, sequencing
Matrix: yeast
Notes: strong parent motif
Baseline: not given
Reading: higher = stronger binding
Endpoint: normalised enrichment score
Starting sequence: CDKN1C docking peptide (human); TSACRSLFGPVDH
TSACRSLLGPVDH [F8L]: 0.0444
TSACASAFGPVDH [R5A L7A]: -0.282
TSACRSLFGPVDA [H13A]: 1.83
ASACRSLFGPVDH [T1A]: 1.64
TSACRSLFGAVDH [P10A]: 1.5
TSAARSLFGPVDH [C4A]: 0.286
TSACRSLFAPVDH [G9A]: 1.2
TSACRSLFGPADH [V11A]: 2.16
TSACKSLLGPVDH [R5K F8L]: 0.0305

Set 4
Target: RNA binding protein fox-1 homolog 2, RRM domain, GST-SBP tag (RBFOX2, Homo sapiens, UniProt O43251-10, residues 100-194)
Technique: RNA Bind-n-Seq
Form: RNA
Matrix: in vitro
Tested at: 365 nM
Notes: natural RNA segment, single round, ends assumed
Baseline: no-protein control
Reading: higher = stronger binding
Endpoint: RBNS enrichment (R)
Constant ends, left off below: GGGAGUUCUACAGUCCGACGAUC … UGGAAUUCUCGGGUGCCAA
Construct (chain): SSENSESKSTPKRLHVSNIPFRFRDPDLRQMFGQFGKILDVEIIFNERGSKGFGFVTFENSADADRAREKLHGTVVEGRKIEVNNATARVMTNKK
UGUCAAUCACGCCUGUCCUCUCACGCCCACACCAAGUGCCCAAAGUGGGGAGGGACAAGAGAUUCUGGAAAGUGAGCCUCCCCAUACCCUCUUUUGUUCUCCCCACCCUG: 0.441
GGAAGCCAUGUGUAACAGAGCUUAGACAUCUGAAACUAAUCAAUGCUGAGGUGGCUAAAUACCUAGCCUUUUACAUGGAAACCUGUCUGCAAAAUUAGCUUUUUUUAAAA: 0.414
AGUUUUCUUUUUAAGAAUCAUGCCAGAGCCUGAGUCGAGCAGUAUGCUUUCUUGGUUUUUGAGAGUAAUUGUGUAAUUGUAGAGGGAGAAAUCCAAUUCUAACCUAAGAA: 0.647
AGCCAGGCCUAGCUUUGAACUGAGUUUCAAGGGCUGCCAAAGAGGGGCAGUGGGUUGGGGUUGUUUUUACUACAAAAUAAGUUACUUAGUUUUAUAAAGACAAACCGAUU: 0.395
UGGAACGUGCCCCAGAAUGAGGCAGUUGGCAAACUUCUCAGGACAAUGAAUCCUUCCCGUUUUUCUUUUUAUGCCACACAGUGCAUUGUUUUUUCUACCUGCUUGUCUUA: 1.67
GAGUCCCUUAACCCCUCUGAGCCCGGGUCUCUUCAUUAGUUGAAAGGGAUAGUAAUACCUACUUGCAGGUUGUUGUCAUCUGAGUUGAGCACUGGUCACAUUGAAGGUGC: 0.702
UCAAGCUUCAUGUAGGGUCAGGGGUGCCUAGGGAUGGCCCCAUCUGCUAUGUAAAUUAGGACUUGCCUGCCAGGUCUCAGCUGUCAGUGGAGAGUAGGUUUCAGGAAACC: 0.637
UUUAUAAAACUCUAAAAGUAUUCUGUUUUGAUAUGUCUUUUUGUUUCUAUUCAUUUUCAGUUAUAUGAUUGAUUUACUUAUGCCAAGAUUCUGUCACUGUCAGUUAUUUA: 0.732
UAGCUGGAGUGUGUGCUGCCUUUCAGGUACAACUUUUAUGUAAUAAAAGCCAGAGCAUUAAGCUUACACAGACUACUUUCUAUGCAAGACAGAGAUAUGGACUAGGUUAC: 0.221
CUGCUACCACAACCCCAGGCGGGUGUCAACACCAGCAAAUGCUGUGUUUGCAGCAUGCCCAAGAUGACCCUGCUCCUGAACCUCUACCUAGCCACUGGUAGAGAGAGGAG: 0.245
CCAGUGGAGGCUUGAAUGCCCUCAGAAACGACCCUGGCCAAUGUCACCGCAGAGCCGAGGCGGUGUUGUCAGGGCUAAUGUGAAAUCUCUUCCCGUGGCGCCGAUCCUCU: 0.609
AUAGAAACACUACAGGUGUGUGCACACAGCACUCAGGUUGGCAUGUUUGGUGUUGAAAUGGGGUCAUUUCAUUCCAUGUUAUGAAUGCAACCAGAAAGGGUGUCUGGGAU: 1.51

Set 5
Target: Histone acetyltransferase KAT6A, both winged helices, GST fusion (KAT6A, Homo sapiens, UniProt Q92794, residues 1-181)
Technique: protein binding microarray
Form: double-stranded DNA, one strand shown
Matrix: in vitro
Tested at: not given
Notes: 8-mer, flanks averaged, mean of 2 arrays, mostly near background
Baseline: not given
Reading: higher = stronger binding
Endpoint: E-score
Construct (chain): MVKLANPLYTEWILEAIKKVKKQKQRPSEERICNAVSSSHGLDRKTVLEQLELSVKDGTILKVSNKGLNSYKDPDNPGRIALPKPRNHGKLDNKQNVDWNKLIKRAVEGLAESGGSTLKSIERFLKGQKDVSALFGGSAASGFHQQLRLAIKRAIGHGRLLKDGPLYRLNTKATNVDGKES
GGTACTAA: -0.0122
AAAGCGAC: 0.0368
AGTTCTGC: 0.12
CACCAGTA: -0.168
AGCCCTAA: -0.0509
ACCTTCCG: 0.134
CACAAAAC: -0.0856
AACGATCG: 0.0732
ATTTTTTC: 0.00158
ACCGGTGC: 0.139
CGACTCCA: -0.0188
GCCACACA: -0.18
ACAGTCGT: -0.00782
ACGTGCAG: -0.122
CGCTATAA: 0.132
AGCATGCG: 0.169
CCAAAAGC: 0.0774
ATCTCTGG: -0.184
CATAAAGG: -0.133
CAAGCCTG: -0.135
GCCTCGGA: 0.136
CGTTGAAC: 0.132
GGTTCGCA: 0.0501
ATTGAAGC: -0.0721
CCGTGCCG: 0.306

Further values, each from its own experiment
PhoQ, residues 284 288 289 292 302 303 TASMAF — fold induction (PhoP, residues 12 14 15 18 19 NQFFI (Escherichia coli, UniProt P23836); Sort-seq, measured: YFP reporter; E. coli; PhoQ-PhoP variant library, added: 10 µM Mg2+; baseline: high Mg2+ state, higher = stronger signaling): 11.8

A few entries again (set 3):
TSACRSLFGAVDH [P10A]: 1.5
TSACASAFGPVDH [R5A L7A]: -0.282
TSACRSLFGPVDA [H13A]: 1.83
TSACRSLFGPADH [V11A]: 2.16
TSACKSLLGPVDH [R5K F8L]: 0.0305
TSACRSLFAPVDH [G9A]: 1.2
TSACRSLLGPVDH [F8L]: 0.0444
TSAARSLFGPVDH [C4A]: 0.286
ASACRSLFGPVDH [T1A]: 1.64
